Experimental data gathered from unrelated publications.
± marks the error that the study gave.
Organism: Trypanosoma cruzi

SMILES	assay	test system	conditions	measurement	value
O=C(N[C@H](Cc1c[nH]c2ccccc12)C(=O)Nc1ccncc1)c1ccc(-c2cccc(C(F)(F)F)c2)cc1F	–	Y luc, mouse	oral, 50 mg/kg twice daily, 4 days, vehicle 20% Solutol	parasite inhibition	> 90%
COc1ccc(C[C@H](N)C(=O)N[C@H]2[C@@H](O)[C@H](n3cnc4c(N(C)C)ncnc43)O[C@@H]2CO)cc1	PrestoBlue	trypomastigote	48 h, DMSO stock retest	IC50	0.62 ± 0.09 µM
O=C(Cn1ccnc1[N+](=O)[O-])NCc1ccccc1	viability, resazurin	trypomastigotes, Y	24 h, RPMI medium, added: 30 µM heme	IC50	12 ± 6.5 µM
CN(C)C(=N)N=C(N)N	parasite growth	Vero	20 mM, 72 h, intracellular, amastigote	inhibition	51.7%
N#CSCCOc1ccc(Oc2cccnc2)cc1	tdTomato fluorescence	Vero cells, CL strain, tdTomato	72 h, intracellular amastigotes	ED50	7.4 ± 0.45 µM
CCOC(=O)c1csc(NN=Cc2cccc(OC)c2)n1	parasite growth	–	24 h, trypomastigote	EC50	12.9 µM
Cc1cc(C2CCCCC2)n(O)c(=O)c1	PrestoBlue	trypomastigote	48 h, DMSO stock retest	IC50	0.9 ± 0.22 µM
O=C(N[C@H](Cc1c[nH]c2ccccc12)C(=O)Nc1ccncc1)c1ccc(-c2ccc(F)c(F)c2)cc1F	–	Y luc, mouse	oral, 50 mg/kg twice daily, 4 days, vehicle 20% Solutol	parasite inhibition	> 70%
c1ccc2c(NCCCn3ccnc3)ncnc2c1	amastigote replication	Vero	IC25, 240 h	inhibition	40%

Excerpt of the above:
SMILES	assay	test system	conditions	measurement	value
c1ccc2c(NCCCn3ccnc3)ncnc2c1	amastigote replication	Vero	IC25, 240 h	inhibition	40%
